# Published values of several laboratories.
# Every numbered part comes from another study and shows a few of its results, in no order.

# Series 1
# Target: Histone acetyltransferase KAT6A, winged helix 1, GST fusion (KAT6A, Homo sapiens, UniProt Q92794, residues 1-85)
# Method: protein binding microarray
# Molecule type: double-stranded DNA, one strand shown
# Medium: in vitro
# Concentration: not given
# Notes: 8-mer, flanks averaged, mean of 2 arrays, mostly near background
# Reference: not given
# Reading: higher = stronger binding
# Construct (chain): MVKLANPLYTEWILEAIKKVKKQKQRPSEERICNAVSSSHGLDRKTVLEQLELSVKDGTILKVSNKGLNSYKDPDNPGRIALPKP
Oligonucleotide,E-score
CAAGATAA,-0.192
CTGAGTAA,-0.125
ATATAGTA,-0.197
ATGCATCG,0.0558
CACGCCGG,0.347
AGAACACG,-0.0642
CCGGGCCA,0.232
CTACCTAA,0.0291
ATCAGCGA,0.0919
AGCCAAGG,-0.164
AATCGAGT,-0.0739
AGAGATTG,-0.0496
AAGAGCCT,-0.0923
GAGGAAAA,-0.209
TATGGCCA,-0.223
GTAGCTTA,0.0303
CCGTTGCC,0.33
AGGCACGC,0.121
TCAGCAGA,-0.264

# Series 2
# Target: Sal-like protein 4, full length isoform B (SALL4, Homo sapiens, UniProt Q9UJQ4-2, residues 1-616)
# Method: universal PBM
# Molecule type: double-stranded DNA, one strand shown
# Medium: in vitro
# Concentration: not given
# Notes: 8-mer, flanks averaged, mean of replicates
# Reading: higher = stronger binding
Oligonucleotide,E-score
CTGCGCGC,-0.233
GTGCCACA,-0.198
ATCATCCG,-0.192
GACATCGA,-0.0554
AGTAAAGG,0.0631
CCTTGGCG,-0.392
CCGGACGC,-0.316
CTTGACGA,-0.176
CAGTTCTA,0.0352
GATAAGCC,-0.144
GCACAGGA,-0.211
GCCAACGA,-0.138
AATTTACG,0.167
GAGCTGGC,-0.296
ACCGCCGG,-0.351
GACGACGC,-0.182
GTGTACGA,0.0593
TACCCAAA,0.0314
ATTCGTAA,0.254
CGAATCTC,-0.127
ACACCCGC,-0.191
ACAGGACA,0.015
GAGAAACA,0.173
ATTGAGCG,-0.0898
CTCATCGC,-0.124

# Series 3
# Target: RING finger protein unkempt homolog, zinc fingers 1-6, GST-SBP tag (UNK, Homo sapiens, UniProt Q9C0B0, residues 30-357)
# Method: RNA Bind-n-Seq
# Molecule type: RNA
# Medium: in vitro
# Concentration: not given
# Notes: RNA with constant flanks, human and mouse sites, ends assumed
# Reference: input RNA pool
# Reading: higher = stronger binding
# All sequences stand within: GGGAGUUCUACAGUCCGACGAUC … CAACAGAGGAUUGAGCAUCA
# Residues (chain): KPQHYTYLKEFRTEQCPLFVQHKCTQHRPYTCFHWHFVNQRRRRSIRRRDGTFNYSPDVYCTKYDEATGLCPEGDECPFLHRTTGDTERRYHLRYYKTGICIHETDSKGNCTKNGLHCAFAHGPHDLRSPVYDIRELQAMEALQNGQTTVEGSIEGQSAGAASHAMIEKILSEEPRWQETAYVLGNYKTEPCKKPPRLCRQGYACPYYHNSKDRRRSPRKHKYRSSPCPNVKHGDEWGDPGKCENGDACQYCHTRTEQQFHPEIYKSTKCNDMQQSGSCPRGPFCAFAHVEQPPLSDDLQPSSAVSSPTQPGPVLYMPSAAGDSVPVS
Oligonucleotide,bound/input enrichment [ratio]
GUAGCUGGGACUACAGAAAUGCUGGUAAUUUCAGUCACUUGCUGAUGACUUCUGAUGUCCCAGCAAAUGUUGGCAUUGUUGACUGCUGAGAAGAUACUUCUGAGGACCCACGUCUAAGGU,0.0655
CCUGCGACAGUUUUUAUGCUUUUUAGUGGUCAAGGAAGUUUGCUCCAACCUUUUAUAUACUAUAGAUUUCUUACCCUUCGAUAUUCGUCUCGAAGAAACCCAUAUUGUCGGACCUUAUUU,7.45
GAAGAAUUGUAUUUGCAACGGGUAGCAGAAUUGGACAAAAUUACUUAUGAAAGAGACAGUUUUAGACAGGCAUAUGAAGAUCUUCGGAAACAAAGGCUUAAUGAAUUUAUGGCAGGUUUU,0.864
UGUGAUGGAGGUGUUUCUGCGACCAGACACAGGAUACCGCUGUGUCUGCACCCGGUUGCCUGCAUGGCCAGAGGAAAAGUCAGUUGGAUUAAACAUCAUGGUAUACUUGGCUGUUGUUUU,0.112
GUUCAAAUAUUAUGUGAAUGUUGUUAAGAAAACAGACUGUAAUUUACCCUAGUAAACUAGUAGUAAUGUCAAGAUUCAAACCUAGGUGUACUCAAAAAUCAGCUCUCUAGUGUUAAGUCC,2.46
UAUAUGACUGACGGGAUGCUACUUCGUGAAGCCAUGAACGAUCCCCUUCUGGAGCGUUAUGGUGUGAUAAUUCUUGAUGAGGCCCAUGAAAGAACAUUGGCUACAGAUAUUCUCAUGGGU,0.0787
AGGCAGGAUGGAAGUGACACUGUAGGGUUUUUUGUUUUUUGGGUUUUUUUUUUUUUUUUUUGUUUUUUUUGUUUUUUGGUGUGUGUGUAAAAAUUGUGUCGUGAUGGAAUUUUUGGCGUG,9.31
UACUGGAGGUCACUAGUUUUGUGAAGAGAUAUAGAACUUCUGGUUGAUGCUUCCUAGCGUUUAGGAUACGAGUUAUUGCACUCUACUUCCUAGCCUCUACUUUUAACUUGUAAGGCCUGC,0.177
GCUCAGAGGGCCAUUAGUUCUGUUCCAGUUGGUAGACAACCCAUCAUCAUGCAGAGUACUAGCAAAUUUAACUUUACACCAGGGCGACCUGGAGUUCAGAAUGGUGGUGGUCAGUCUGAU,0.691
UGGCCACAGGCAGGGCGGGUCUGUGUCCCAUGUGUCCUGUCAGUCCCCUGAGUAUGUGUGUGGGUGUGGCGCAUGUGCAGGUCUGUGCCUCCUGUCGGGAUUUGGGUUUUAACGUCUUCU,0.23
AGGAUAGUAUUGGUUGCUAUGGAAACCUGGGCGACUGACAACAAGUUUGCCAUAUCUGAAAAUCCAUUGAUCACCCUACGUGAGUUUAUGAAAUACAGGAGGGAUUUUAUCAAAGAGAAA,0.16

# Series 4
# Target: RNA binding protein fox-1 homolog 2, RRM domain, GST-SBP tag (RBFOX2, Homo sapiens, UniProt O43251-10, residues 100-194)
# Method: RNA Bind-n-Seq
# Molecule type: RNA
# Medium: in vitro
# Concentration: 365 nM
# Notes: natural RNA segment, single round, ends assumed
# Reference: no-protein control
# Reading: higher = stronger binding
# All sequences stand within: GGGAGUUCUACAGUCCGACGAUC … UGGAAUUCUCGGGUGCCAA
# Residues (chain): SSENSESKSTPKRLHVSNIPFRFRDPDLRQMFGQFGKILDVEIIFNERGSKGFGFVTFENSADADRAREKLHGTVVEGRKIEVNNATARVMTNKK
Oligonucleotide,RBNS enrichment (R)
GUUCACAGCAUUGCUUCUUCUUCUUCCUUCUCCACCUCCUUGUGGGAACGGGAUUAAGUUUAAAACUUUCCCGUUUCUUUUUUGUUCGGUUGGUUUGGGUUUUUUUUUUU,0.61
AGGAAACACUGAUUUGCUUUCUGUUUCCCAUAUCUCACCUCUAGGAUAUGAUGGAAGAAGUGCUUGAAAGAGAAUUUUAGCAGAUGGUACUUUUCUCAGUGACCUCUGGA,0.512
UCUUUCUGGCCUUUUGGGGGGCAGUGUCUGUGCCAUGCCUAAUAGAUAUGACCAGACGCAUCCUAAGAUGUUGAUUCUUACUGUGUUGUAUAAAAUAAAGUGUAGUUUAC,0.322
AAGAGGAUAAAAGAAGCAUGAAUGAAAAGAAUGACAUUUCAAAAAAAUGGUUCAAUGAAAAACUAUAGCUAAAAUAUGUAAACCUUUCUAGGUAAACCGCUUGCCUUCAU,4.97
AAGCUGCCCGGGAGGGUGGGUGCAGACACAGGCUGAGGACCAGCCCUGGCCCUGCCCCGCCAUCUGCUUUCACCAAGCUGUCUCUCCACCGUGGCUUCCCUUCUCCCUCC,0.37
ACUGUGCUGGGGUUUGUUGUGAUGGCCACUCGGUGACCUGGCGGUCCCUACGCAAUAGCAGCUGCCUGUGGGGAAGAAGGGCUGCCCAGCCAGCUGGUUCUCCCGGGACA,0.378
UUCUCUUCCCGCAGACAGUCCCACACAUCAGCCUCUACUCCUUCCACCACUGCAAACCCCCAAAUUGUAUGGAAGCCCCACACAGAUAGGGCCAAGCUAUAGAGGCAUGA,0.578
GCAGUCAAUAUAGGAUCUCAGGCCAGGCCCGCUUUUCUAGAAUGUGUUUAAUUUUGAGUUUGCUUUAUUAGAUAUGUUUUUUAAGAGCUCUGUAUAUUUGAACUGCUCCU,0.437
GACCUUCAACCAUUGGACCAAGAAGUCAUUGCUUAUGGGUCUCAGGGGCCAUCAAACUGUCUACCUGAUGCUGUGGUUUCUGCUUAGAGAUCUGGAGGAGGGCAGCGGAG,0.413
UCCCCUGGGAGCUUCUUAGAAAUGCAGACCUGUGGGCUCUACCACAGGCCUCUGGAAUCAGAAUCUUCAGGGUGGGGCCCAGCAGUCUGUGUUUUAACAGGUUCUCCCGG,0.22
UGGUGGGGGUGGAGUUCCCUCCCAAACACCAGACCACACAGUCCUCCAAAAAUAAACAUUUUAUAUAACAUUUGGUUUUGCUUUUCUGUUCUCCCCAACAGGGAACUCUG,0.349
UUUUUAUUUUUUGUAAUUUAUCUUUAACUCCUUUUGCAUUUUGUAUAACAGAUUGCUUAACUUCUACUUGCCAACAUCUGCCUUGCUGGACUUGUAUGGGAUUGUCUUCU,1.52

# Series 5
# Target: Hepatocyte nuclear factor 3-beta, forkhead domain (FOXA2, Homo sapiens, UniProt Q9Y261, residues 142-269)
# Method: protein-binding microarray
# Molecule type: double-stranded DNA, one strand shown
# Medium: in vitro
# Concentration: not given
# Notes: k-mer, scored over probes, only values ≥0.25
# Reading: higher = stronger binding
# Target sequence (chain): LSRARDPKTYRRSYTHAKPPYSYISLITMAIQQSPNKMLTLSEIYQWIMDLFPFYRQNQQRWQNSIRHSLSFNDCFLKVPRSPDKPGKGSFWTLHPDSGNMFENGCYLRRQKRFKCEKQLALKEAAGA
Oligonucleotide,E-score
GACATACA,0.321
ATTAAAGA,0.262
ACACTGTA,0.288
ACATCAAA,0.266
CATATAGA,0.355
ATATACCG,0.273
ATATGGTG,0.269
ATACGGTA,0.265
TACACAGA,0.287
ACACATTC,0.25
AATTAGAC,0.301
AACCTATG,0.253
ACAATTAC,0.276
ATACTGTA,0.322
AATACGTA,0.261
ATGTTTAC,0.391
TACCTATA,0.254
ACTATTTA,0.293
ATTTTCTA,0.311
TACGCTAA,0.308
ATACTACA,0.297
CAATGCTA,0.27
AATGGTAT,0.274
ATGTATGA,0.289
TAACGTAA,0.268

# Repeated from above (series 2):
Oligonucleotide,E-score
AGTAAAGG,0.0631
CCTTGGCG,-0.392
CCGGACGC,-0.316
CTTGACGA,-0.176
CAGTTCTA,0.0352
GATAAGCC,-0.144
GCACAGGA,-0.211
GCCAACGA,-0.138
AATTTACG,0.167
GAGCTGGC,-0.296
ACCGCCGG,-0.351
GACGACGC,-0.182
GTGTACGA,0.0593
TACCCAAA,0.0314
